Results gathered from unrelated publications.
± gives the spread as reported.

| SMILES | assay | test system | setting | tissue uptake |
| --- | --- | --- | --- | --- |
| CC[C@H](C)[C@H](NC(=O)[C@H](CCCNC(=N)N)NC(=O)[C@H](CCCCN)NC(=O)[C@H](Cc1ccc(O)cc1)NC(=O)[C@H](CC(=O)O)NC(=O)[C@H](C)NC(=O)CNC(=O)CCOCCOCCOCCNC(=O)CN1CCN(CC(=O)O)CCN(CC(=O)O)CCN(CC(=O)O)CC1)C(=O)N[C@H](C(=O)N[C@H](C(=O)N[C@@H](CCCCN)C(=O)N[C@H](C(=O)N[C@@H](CC(N)=O)C(N)=O)C(C)C)C(C)C)[C@@H](C)O [copper-64 labelled] | ex vivo gamma counting | C57BL/6J male mice, B16-F10 tumour, brain | intravenous, 1.85 MBq, 40 min | 0.105 ± 0.002 %ID/g |
| CSCC[C@H](NC(=O)CNC(=O)[C@H](CCCCN)NC(=O)[C@H](CC(C)C)NC(=O)[C@@H]1CCCN1C(=O)[C@H](CO)NC(=O)[C@H](Cc1c[nH]cn1)NC(=O)[C@H](Cc1c[nH]c2ccccc12)NC(=O)[C@H](CCCNC(=N)N)NC(=O)[C@H](CC(C)C)NC(=O)[C@H](CCCNC(=N)N)NC(=O)[C@H](Cc1c[nH]c2ccccc12)NC(=O)[C@H](CS)NC(=O)CCCCCNC(=O)CN1CCN(CC(=O)O)CCN(CC(=O)O)CCN(CC(=O)O)CC1)C(=O)O [copper-64 labelled] | ex vivo biodistribution | male C57BL/6J mice, pancreas | intravenous, 1.85 MBq, 18 h, B16-F10 tumour-bearing | 1.03 %ID/g |
| C[C@H](O)[C@@H](NC(=O)[C@H]1CCCN1C(=O)[C@@H](CCCCN)NC(=O)[C@@H](CO)NC(=O)[C@@H](Cc1ccc(O)cc1)NC(=O)[C@@H](CC(N)=O)NC(=O)CCOCCOCCOCCNC(=O)CN1CCN(CC(=O)O)CCN(CC(=O)O)CCN(CC(=O)O)CC1)C(=O)N[C@H](CC(=O)O)C(=O)N[C@H](CCCNC(=N)N)C(=O)N[C@H](CCC(N)=O)C(=O)N[C@H](Cc1ccc(O)cc1)C(=O)N[C@H](Cc1c[nH]cn1)C(=O)N[C@H](Cc1ccccc1)C(N)=O [copper-64 labelled] | – | C57BL/6J mice, thymus | intravenous, 1.85 MBq, 0.3333 h, radiolabelled | 0.72 ± 0.17 %ID/g |
| CCCC[C@H]1C(=O)N(C)[C@@H](CCCC)C(=O)N[C@@H](CCCNC(=O)CN2CCN(CC(=O)O)CCN(CC(=O)O)CCN(CC(=O)O)CC2)C(=O)N[C@H](C(=O)NCC(N)=O)CSCC(=O)N[C@@H](Cc2ccc(O)cc2)C(=O)N(C)[C@@H](C)C(=O)N[C@@H](CC(N)=O)C(=O)N2CCC[C@H]2C(=O)N[C@@H](Cc2c[nH]cn2)C(=O)N[C@@H](CC(C)C)C(=O)N(C)CC(=O)N[C@@H](Cc2c[nH]c3ccccc23)C(=O)N[C@@H](CO)C(=O)N[C@@H](Cc2c[nH]c3ccccc23)C(=O)N1C [gallium-68 labelled] | – | NOD/SCID mice with CHO-hPD-L1 xenograft, blood | 120 min post injection | 5.82 ± 2.51 %ID/g |
| CC[C@H](C)[C@H](NC(=O)[C@@H](Cc1c[nH]c2ccccc12)NC(=O)[C@@H]1CCCN1C(=O)[C@H](CCCCN)NC(=O)[C@H](CCCCN)NC(=O)CCNC(=O)CCNC(=O)CN1CCN(CC(=O)O)CCN(CC(=O)O)CCN(CC(=O)O)CC1)C(=O)N[C@@H](C[Si](C)(C)C)C(=O)O [gallium-68 labelled] | ex vivo biodistribution | nude mice, HT-29 xenograft, kidneys | 90 min, added: levocabastine 0.5 µmol | 21.8 ± 3 %ID/g |
| CC[C@H](C)[C@H](NC(=O)[C@H](CCCNC(=N)N)NC(=O)[C@H](CCCCN)NC(=O)[C@H](Cc1ccc(O)cc1)NC(=O)[C@H](CC(=O)O)NC(=O)[C@H](C)NC(=O)CNC(=O)CCOCCOCCOCCNC(=O)CN1CCN(CC(=O)O)CCN(CC(=O)O)CCN(CC(=O)O)CC1)C(=O)N[C@H](C(=O)N[C@@H](CC(C)C)C(=O)N[C@@H](CCCCN)C(=O)N[C@H](C(=O)N[C@@H](CC(N)=O)C(N)=O)C(C)C)[C@@H](C)O [copper-64 labelled] | ex vivo gamma counting | C57BL/6J male mice, B16-F10 tumour, stomach | intravenous, 1.85 MBq, 5 min | 1.8 ± 0.127 %ID/g |
| CC[C@H](C)[C@H](NC(=O)[C@H](CCCCN)NC(=O)CNC(=O)[C@H](CC(C)C)NC(=O)[C@H](Cc1ccccc1)NC(=O)[C@H](CCCCN)NC(=O)[C@H](CO)NC(=O)[C@H](Cc1ccccc1)NC(=O)[C@H](Cc1c[nH]c2ccccc12)NC(=O)[C@H](CCC(N)=O)NC(=O)[C@@H](NC(=O)[C@H](Cc1ccccc1)NC(=O)CCCCCNC(=O)CN1CCN(CC(=O)O)CCN(CC(=O)O)CCN(CC(=O)O)CC1)C(C)C)C(=O)N[C@@H](CCC(=O)O)C(=O)N1CCC[C@H]1C(=O)N[C@@H](CC(=O)O)C(=O)N[C@H](C(=O)N[C@@H](CO)C(=O)N[C@@H](CCC(N)=O)C(=O)N[C@H](C(=O)N[C@@H](CCC(N)=O)C(=O)N[C@@H](CC(=O)O)C(=O)N1CCC[C@H]1C(=O)N[C@@H](CC(N)=O)C(=O)N[C@@H](CC(=O)O)C(=O)N[C@@H](CCC(N)=O)C(=O)N[C@@H](Cc1ccc(O)cc1)C(=O)N[C@@H](CCC(=O)O)C(=O)N1CCC[C@H]1C(=O)N[C@@H](Cc1ccccc1)C(=O)O)C(C)C)C(C)C [copper-64 labelled] | – | C57BL/6 mice, heart | added: LPS 0.1 mg/kg intratracheal | 1.29 ± 0.3 %ID/g |
| CC(C)C[C@@H](NC(=O)[C@@H](CCCNC(=N)N)NC(=O)[C@@H](Cc1c[nH]cn1)NC(=O)[C@@H](Cc1c[nH]c2ccccc12)NC(=O)[C@@H](Cc1c[nH]cn1)NC(=O)[C@@H](Cc1ccccc1)NC(=O)[C@H](NC(=O)[C@@H](Cc1ccc(O)cc1)NC(=O)CNC(=O)CNC(=O)CCOCCOCCOCCNC(=O)CN1CCN(CC(=O)O)CCN(CC(=O)O)CC1)[C@H](C)O)C(=O)N[C@H](CC(N)=O)C(=O)N1CCC[C@@H]1C(=O)O [gallium-68 labelled] | gamma counting | C57BL/6 mice, male, stomach | intravenous, 1.85 MBq, 60 min | 1.07 ± 0.3 %ID/g |
